# Assay results pooled from the literature.
# Parts stem from different laboratories: compare values within a part only. Positions count from the first letter of the parent shown.

# Block 1 — technique: universal PBM; form: double-stranded DNA, one strand shown; matrix: in vitro; concentration: 600 nM; direction: higher = stronger binding
# Target: Sal-like protein 4, full length isoform A (SALL4, Homo sapiens, UniProt Q9UJQ4, residues 1-1053)
# UniProt Q9UJQ4, sequence (whole entry, looked up): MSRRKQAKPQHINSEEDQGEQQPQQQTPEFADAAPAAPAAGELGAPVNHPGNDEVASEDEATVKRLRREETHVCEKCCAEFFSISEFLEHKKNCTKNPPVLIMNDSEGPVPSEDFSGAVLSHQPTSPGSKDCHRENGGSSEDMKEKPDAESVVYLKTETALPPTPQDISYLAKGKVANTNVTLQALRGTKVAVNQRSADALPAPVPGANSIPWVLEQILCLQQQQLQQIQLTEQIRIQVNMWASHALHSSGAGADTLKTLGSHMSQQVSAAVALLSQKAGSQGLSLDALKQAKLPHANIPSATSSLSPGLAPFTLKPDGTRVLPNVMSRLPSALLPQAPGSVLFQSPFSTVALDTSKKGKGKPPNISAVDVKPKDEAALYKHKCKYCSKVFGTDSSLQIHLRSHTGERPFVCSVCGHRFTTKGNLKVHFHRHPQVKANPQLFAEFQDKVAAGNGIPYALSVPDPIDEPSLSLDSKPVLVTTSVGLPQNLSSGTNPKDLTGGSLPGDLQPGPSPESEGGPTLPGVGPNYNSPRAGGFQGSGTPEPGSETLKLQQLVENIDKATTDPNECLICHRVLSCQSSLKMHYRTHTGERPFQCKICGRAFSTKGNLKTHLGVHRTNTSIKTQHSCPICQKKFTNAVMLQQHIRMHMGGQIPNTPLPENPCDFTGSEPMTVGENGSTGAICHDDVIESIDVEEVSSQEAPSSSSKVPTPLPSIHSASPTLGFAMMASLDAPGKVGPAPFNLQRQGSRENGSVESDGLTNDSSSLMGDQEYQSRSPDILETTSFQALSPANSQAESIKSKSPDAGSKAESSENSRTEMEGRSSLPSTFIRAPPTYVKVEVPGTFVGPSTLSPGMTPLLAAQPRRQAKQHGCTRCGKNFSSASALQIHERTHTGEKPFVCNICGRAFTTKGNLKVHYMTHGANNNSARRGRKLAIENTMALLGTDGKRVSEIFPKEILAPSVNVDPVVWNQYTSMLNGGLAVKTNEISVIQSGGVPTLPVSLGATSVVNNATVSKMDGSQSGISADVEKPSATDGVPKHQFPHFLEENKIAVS
# Notes: 8-mer, flanks averaged, mean of replicates
Strand,E-score
TAGTGCCA,-0.138
CGCCCGAA,-0.213
AAATGCAG,0.0758
CTGAGGGC,-0.321
AGAACCCG,-0.245
GGATCGCA,-0.112
AAGCGGCG,-0.305
GCCAGTCC,-0.288
ATAGATTA,0.349
ACCCACGC,-0.216
AACCATGT,0.0523
GTGAACCA,0.0427
AAGTATTA,0.343
CACGTTAC,-0.00517

# Block 2 — technique: Sort-seq; refers to: YFP reporter; matrix: E. coli; notes: PhoQ-PhoP variant library; added: 10 µM Mg2+; relative to: high Mg2+ state; direction: higher = stronger signaling
# Molecule: PhoQ, residues 284 288 289 292 302 303 SIHMAM
target,fold induction
"PhoP, residues 12 14 15 18 19 SFCSL (Escherichia coli, UniProt P23836)",13.8
"PhoP, residues 12 14 15 18 19 AYFRS (Escherichia coli, UniProt P23836)",8.87
"PhoP, residues 12 14 15 18 19 HHYTI (Escherichia coli, UniProt P23836)",1.83

# Block 3 — technique: protein binding microarray; form: double-stranded DNA, one strand shown; matrix: in vitro; concentration: not given; relative to: not given; direction: higher = stronger binding
# Target: Histone acetyltransferase KAT6A, winged helix 2, GST fusion (KAT6A, Homo sapiens, UniProt Q92794, residues 85-181)
# Notes: 8-mer, flanks averaged, mean of 2 arrays, mostly near background
# Residues (chain): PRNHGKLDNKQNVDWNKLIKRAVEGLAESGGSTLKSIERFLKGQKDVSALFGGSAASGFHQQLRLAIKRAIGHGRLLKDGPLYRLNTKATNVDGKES
Strand,E-score
AATGACGT,-0.135
AGCTGTAC,-0.0909
ATGCACAC,0.108
GTCCTAGA,-0.0547
CGACGTAG,-0.16
AATATTAG,-0.017
CTCTCCGC,0.283
CTCGAACC,0.0496
CAGTGAGC,-0.0395

# Block 4 — target: CCNF, cyclin fold, Cln2 fusion (human); technique: yeast growth competition, sequencing; matrix: yeast; notes: strong parent motif; relative to: not given; direction: higher = stronger binding
# Parent: SLBP docking peptide (human); ARYKRKLLINDFG
Substitution,normalised enrichment score
ARYKRKLLINDCG [F12C],1.65
ARYKRKLNINDFG [L8N],1.45
ARYKRKLLINDIG [F12I],1.59
ARYKRKLLINDFE [G13E],1.16
ARYKRKLLINDWG [F12W],1.61
ARYKRKFLINDFG [L7F],1.71
ARYKRKLLINTFG [D11T],2.35

# Some of these lines once more (block 3):
Strand,E-score
GTCCTAGA,-0.0547
ATGCACAC,0.108
